Results pooled from the literature.
Lines come from different studies, so protocols differ. Numbers after ± are the reported error.
Target: Cytochrome P450 2B6 (CYP2B6, Homo sapiens, UniProt P20813)
One construct used (P20813 1-491): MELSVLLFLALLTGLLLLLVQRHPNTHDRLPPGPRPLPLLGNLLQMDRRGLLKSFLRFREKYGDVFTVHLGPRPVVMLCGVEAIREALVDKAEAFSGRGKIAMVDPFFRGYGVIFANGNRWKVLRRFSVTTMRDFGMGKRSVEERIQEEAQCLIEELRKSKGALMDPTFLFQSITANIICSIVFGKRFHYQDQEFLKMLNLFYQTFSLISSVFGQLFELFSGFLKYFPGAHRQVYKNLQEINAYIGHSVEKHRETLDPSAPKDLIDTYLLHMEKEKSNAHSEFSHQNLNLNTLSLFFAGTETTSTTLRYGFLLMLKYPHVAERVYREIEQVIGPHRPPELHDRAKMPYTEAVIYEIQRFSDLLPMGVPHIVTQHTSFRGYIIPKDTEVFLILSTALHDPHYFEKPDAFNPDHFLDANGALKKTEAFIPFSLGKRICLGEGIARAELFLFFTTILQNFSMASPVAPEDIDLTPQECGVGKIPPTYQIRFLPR

Compound	test	system	setting	quantity	value
C[C@@H](c1ccc2nccn2c1)n1nnc2ncc(-c3cnn(C)c3)nc21	inhibitor	pooled human liver microsomes	reversible inhibition	IC50	> 100 µM
C=CC(=O)Nc1cc(Nc2nccc(-c3cn(C)c4ccccc34)n2)c(OCC(F)(F)F)nc1N(C)CCNC	substrate depletion	recombinant human CYP	1 µM	intrinsic clearance	0.32 µL/min/pmol
C[C@H]1CN(C2COC2)CCN1c1ccc(Nc2cc(-c3ccnc(N4CCn5c(cc6c5CC(C)(C)C6)C4=O)c3CO)cn(C)c2=O)nc1	substrate	recombinant enzyme	1 µM, 60 min	remaining compound	99.4 ± 8.2%
C=CC(=O)Nc1cc(Nc2nccc(-c3cn(C)c4ccccc34)n2)c(OCC(F)(F)F)nc1N(C)CCN(C)C	substrate depletion	recombinant human CYP	1 µM	intrinsic clearance	0.27 µL/min/pmol
N#C[C@H](C[C@@H]1CCCNC1=O)NC(=O)[C@H](CC1CC1)NC(=O)c1cc2cccc(Cl)c2[nH]1	NADPH metabolic stability	–	2 µM, pH 7.4, 100 pmol/mL enzyme	intrinsic clearance	< 0.054 µL/min/pmol
C=CC(=O)N(C)CCOc1c(N)ncnc1-c1cc(F)cc(NC(=O)c2ccc(C3CC3)cc2F)c1C	–	recombinant human CYP	pH 7.4, scaled to liver microsomes	relative unbound intrinsic clearance	1.5 µL/min/mg
CN(C(=O)n1cnc(-c2ccc[n+]([O-])c2)c1)C1CCCCC1	enzyme activity, inhibitor	pooled human liver microsomes	0.1 to 30 µg/mL	inhibition	no effect
Cc1cc(C)c(CNC(=O)c2cc(Cl)c3c(c2C)O[C@@](C)([C@H]2CC[C@H](N(C)C)CC2)O3)c(=O)[nH]1	–	recombinant human CYP2B6	0 and 30 min	CLint	0.00272 µL/min/pmol

Some of these lines once more:
Compound	test	system	setting	quantity	value
C[C@@H](c1ccc2nccn2c1)n1nnc2ncc(-c3cnn(C)c3)nc21	inhibitor	pooled human liver microsomes	reversible inhibition	IC50	> 100 µM
